Measured values pooled from the literature.
Each line is one published result; not all experiments were run side by side.
CDK9: Cyclin-dependent kinase 9 (CDK9, Homo sapiens, UniProt P50750)
CDK9 with cyclin T1: Cyclin-dependent kinase 9, with cyclin T1 (CDK9, Homo sapiens, UniProt P50750)

With `C=CC(=O)N1CCCC(n2c(=O)c3ncccc3n(Cc3ccc(Oc4ccccc4)cc3)c2=O)C1` (centres unmarked) the remaining binding was 90% (CDK9; cell-free assay, competition with immobilised ligand; 1 µM).
`CNC(=O)C[C@H](Cc1ccc(C#N)cc1)NC(=O)c1cc(-c2ccc(CN[C@H](C)c3ccc(C)cc3)o2)ccc1Cl` — result for “activity vs control”: 99% (CDK9 with cyclin T1; enzyme activity, inhibitor; 1 µM).
With `CC(=O)N1c2ccc(-c3ccc(CNC(=O)c4cn5cc(-c6cnc(N)nc6)nc(N6CCOCC6)c5n4)cc3)cc2CC[C@@H]1C` the remaining binding was 90% (CDK9; KINOMEscan; 10 µM).
`CCc1nnc(Nc2cnc([C@@H]3CCCN(C(=O)CCc4cccnc4)C3)cn2)s1` — result for “activity vs control”: 104% (CDK9; enzyme activity, inhibitor, ADP detection; 1 µM).
For `CC(C)=CC1OC(C)(C)C2C=C3C(=O)C(Cl)=CC(O)C3C3C(O)C4OC4C(=O)C132` (centres unmarked), the remaining binding was 77% (CDK9; cell-free assay, competition with immobilised ligand; 10 µM).
The inhibition of `C=CC(=O)N1Cc2nc(-c3cc(-c4cc(Cl)cnc4Cl)c(F)cc3F)n(-c3ccncn3)c2C1` is reported as 0.9% (CDK9 with cyclin T1; cell-free assay, inhibitor; 1 µM).
For `CN1CCN(Cc2ccc(NC(=O)c3cccc(C#Cc4cnc(N)c5ncccc45)c3)cc2C(F)(F)F)CC1`, the remaining binding was 100% (CDK9; cell-free assay, competition with immobilised ligand; 0.5 µM).
`Nc1ncc2c(n1)-c1c([nH]c3ccc(C4=CCOCC4)cc13)CCC2` has a remaining binding of 100% (CDK9; binding, competition with immobilised ligand; 1 µM).
The inhibition of `CN1CCN(Cc2ccc(-c3ccc(CO[C@H]4CCC[C@@H]4NC(=O)c4cc(-c5cnn(C)c5)cnc4N)cc3)cc2)CC1` is reported as 5% (CDK9 with cyclin T1; enzyme activity, inhibitor; 0.1 µM).
`O=C(Cc1ccc(OCc2ccccc2)cc1)NC1(C(=O)O)CCN(C(=O)c2ccc(-c3cccc(Cl)c3)cc2)CC1` — result for “activity vs control”: 108% (CDK9 with cyclin T1; enzyme activity, inhibitor; 10 µM).
The inhibition of `NC(=O)[C@@H](O)C[C@H]1CCc2sc3ncnc(O[C@H]4CC[C@H](N5CCOCC5)CC4)c3c21` is reported as 39% (CDK9 with cyclin T1; enzyme activity, inhibitor; 10 µM).
`COc1ccc(NC(=O)Nc2ccc3c(c2)C(=O)N(C(C)CO)CC(C)C(CN(C)Cc2ccc4c(c2)OCO4)O3)cc1` (centres unmarked) has a remaining activity of 109% (CDK9 with cyclin T1; kinase activity, KinaseProfiler; 0.03 µM, species human; reference: control).
With `CCN1CCN(Cc2ccc(C(=O)Nc3ccc(C)c(NCc4cnc5[nH]ccc5c4OC)c3)cc2C(F)(F)F)CC1` the remaining binding was 100% (CDK9; binding, competition with immobilised ligand; 1 µM).
`C=CC(=O)Nc1cccc(-c2cnc3[nH]cc(C(=O)NC(C)(C)C)c3n2)c1` has an inhibition of 2% (CDK9 with cyclin T1; enzyme activity, inhibitor; 0.1 µM).
`Cc1cnc2nc1Nc1cccc(c1)COC/C=C/COCc1cc(ccc1OCCN1CCOCC1)N2` gave a remaining binding of 100% (CDK9; binding; 0.1 µM).
`CN1C[C@@H](c2c[nH]c3cc(Br)ccc23)NC[C@@H]1c1c[nH]c2cc(Br)ccc12` gave a remaining activity of 93% (CDK9 with cyclin T1; enzyme activity, inhibitor; 10 µM).
`Cc1cc(C)nc(Nc2ccc([C@@H]3CCCN(C(=O)/C=C/c4c(C)nn(C)c4C)C3)nc2)n1` — result for “activity vs control”: 107% (CDK9; enzyme activity, inhibitor, ADP detection; 1 µM).
For `CCn1cc(C(=O)O)c(=O)c2c(N)c(F)c(NC3CCCCC3)cc21`, the inhibition was 24.3% (Cyclin-dependent kinase 9, with cyclin T2 (CDK9, Homo sapiens, UniProt P50750); kinase activity; 0.1 µM, with: ATP at Km).
The remaining activity of `COc1cc(Nc2nc(C)cc(-c3cnn4nc(OC)ccc34)n2)cc(C(F)(F)F)c1` is reported as 100% (CDK9; inhibitor; 1 µM; reference: control).
For `O=C(Nc1cc(-c2ccnc3[nH]ccc23)c(Cl)cn1)[C@H]1CCC[C@@H](NC(=O)C(F)(F)F)C1`, the remaining binding was 0.2% (CDK9; binding, competition with immobilised ligand; 0.1 µM).
`O=C=[N][Ru-4]123([n]4c5ccc(O)cc5c5c6c(c7cc(F)c[n+]1c7c54)C(=O)NC6=O)[S+]1CC[S+]2CC[S+]3CC1` (centres unmarked) has a remaining activity of 108% (CDK9 with cyclin T1; enzyme activity; 100 nM, human enzyme, with: 10 µM ATP; reference: untreated).
`Cc1ccc(-c2c(/C=C(\C#N)C(=O)NC(C)C)n(CCCO)c3ncnc(N)c23)cc1` has a remaining binding of 100% (CDK9; cell-free assay, competition with immobilised ligand; 1 µM).
`C=C1CCCCCCCCCC(CO)C1=O` (centres unmarked) has a remaining binding of 90% (CDK9; cell-free assay, competition with immobilised ligand; 10 µM).
`COc1c(Cl)cccc1Nc1c(-c2ccncc2C#C[C@@]2(C)CCCN2C(=O)/C=C/CN(C)C)[nH]c2c1C(=O)NCC2` has a remaining binding of 100% (CDK9; binding, competition with immobilised ligand; 3 µM).
The inhibition of `Cc1cccc(O[C@H]2CCC[C@@H](C(C)CNCc3ccncc3)C2)c1` (relative stereo) is reported as 7% (CDK9 with cyclin T1; enzyme activity, inhibitor; 1 µM).
`O=C(O)CCC(=O)c1cccc(NS(=O)(=O)c2c[nH]c3ncccc23)c1` gave a remaining activity of 100% (CDK9 with cyclin T1; kinase activity, radiometric; 10 µM).

Some of these lines once more:
`Nc1ncc2c(n1)-c1c([nH]c3ccc(C4=CCOCC4)cc13)CCC2` has a remaining binding of 100% (CDK9; binding, competition with immobilised ligand; 1 µM).
The inhibition of `CN1CCN(Cc2ccc(-c3ccc(CO[C@H]4CCC[C@@H]4NC(=O)c4cc(-c5cnn(C)c5)cnc4N)cc3)cc2)CC1` is reported as 5% (CDK9 with cyclin T1; enzyme activity, inhibitor; 0.1 µM).
`O=C(Cc1ccc(OCc2ccccc2)cc1)NC1(C(=O)O)CCN(C(=O)c2ccc(-c3cccc(Cl)c3)cc2)CC1` — result for “activity vs control”: 108% (CDK9 with cyclin T1; enzyme activity, inhibitor; 10 µM).
The inhibition of `NC(=O)[C@@H](O)C[C@H]1CCc2sc3ncnc(O[C@H]4CC[C@H](N5CCOCC5)CC4)c3c21` is reported as 39% (CDK9 with cyclin T1; enzyme activity, inhibitor; 10 µM).
